Results gathered from unrelated publications.
Parts stem from different laboratories: compare values within a part only. Changes are numbered by the printed parent chain.

Series 1
Target: CREBL2, bZIP domain (human)
Technique: DHFR protein complementation
Matrix: yeast
Setting: single substitutions, most at no-binding floor
Baseline: wild-type JUN-FOS pair
Direction: higher = stronger binding
Parent: JUN, bZIP domain (human); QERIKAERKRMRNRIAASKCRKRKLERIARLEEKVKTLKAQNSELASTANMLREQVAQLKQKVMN; partner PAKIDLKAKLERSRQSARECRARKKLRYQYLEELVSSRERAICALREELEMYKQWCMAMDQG
Change | binding fitness [natural log]
L38T | -1.53
K39A | -1.3
K34S | -1.52

Series 2
Target: RING finger protein unkempt homolog, zinc fingers 1-6, GST-SBP tag (UNK, Homo sapiens, UniProt Q9C0B0, residues 30-357)
Chain of UniProt Q9C0B0 (30-357, looked up): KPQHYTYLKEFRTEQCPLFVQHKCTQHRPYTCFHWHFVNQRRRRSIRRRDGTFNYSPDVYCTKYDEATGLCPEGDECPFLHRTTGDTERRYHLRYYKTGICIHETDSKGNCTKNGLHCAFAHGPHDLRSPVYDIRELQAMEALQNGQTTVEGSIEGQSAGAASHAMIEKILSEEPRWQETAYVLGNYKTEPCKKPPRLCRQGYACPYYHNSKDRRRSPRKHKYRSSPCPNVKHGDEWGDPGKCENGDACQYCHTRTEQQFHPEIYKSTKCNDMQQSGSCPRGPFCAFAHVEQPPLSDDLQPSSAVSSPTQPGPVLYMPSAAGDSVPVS
Technique: RNA Bind-n-Seq
Molecule type: RNA
Matrix: in vitro
Tested at: not given
Setting: RNA with constant flanks, human and mouse sites, ends assumed
Baseline: input RNA pool
Direction: higher = stronger binding
Oligonucleotide | bound/input enrichment [ratio]
GGGAGUUCUACAGUCCGACGAUCAUGGAUGACAAGGCCUCUGUUGGAAAAAUCAGUGUCUCAUCAGACUCAGUGUCUACUCUUAAUAGUGAAGAUUUUGUCUUGGUUUCCAGGCAAGGAGAUGAGACACCAUCUACAAAUAAUCAACAGAGGAUUGAGCAUCA | 0.907
GGGAGUUCUACAGUCCGACGAUCCCACUCCCAGAAUCAGAAGUGACUCUGGGCAAGGACGUGGUUAUACUUCCAGAAACAAAGGUGGCUGAGUUUAACAAUGUGACUCCACUUUCAGAAGAAGAGGUAACCUCAGUCAAGGACCAACAGAGGAUUGAGCAUCA | 0.123
GGGAGUUCUACAGUCCGACGAUCGCUGCGCAAAUGAAUGGUAAACCAGAAUCCAGUUCUGUGGUUCGAACUAGGAGCAACCGUGUAGCUGUAGAUCCAGUUGUCACCGAGCAGCCCUCUACAUCAUCAGCCACAAAAGCUUUUCAACAGAGGAUUGAGCAUCA | 0.161
GGGAGUUCUACAGUCCGACGAUCAUGAAGAAUGAUAUAACAGUUCCUUCAAAAUUGGCCUAGGAAAUAAAACCUUAAAAGGACACUGGUGUGCUACUUUGUCUUAAUUUGGGCUUUUCUGUUUCAGUUUGCCACCUCCAGCUGCAACAGAGGAUUGAGCAUCA | 0.424

Series 3
Target: Sal-like protein 4, full length isoform A (SALL4, Homo sapiens, UniProt Q9UJQ4, residues 1-1053)
Chain of UniProt Q9UJQ4 (whole entry, looked up): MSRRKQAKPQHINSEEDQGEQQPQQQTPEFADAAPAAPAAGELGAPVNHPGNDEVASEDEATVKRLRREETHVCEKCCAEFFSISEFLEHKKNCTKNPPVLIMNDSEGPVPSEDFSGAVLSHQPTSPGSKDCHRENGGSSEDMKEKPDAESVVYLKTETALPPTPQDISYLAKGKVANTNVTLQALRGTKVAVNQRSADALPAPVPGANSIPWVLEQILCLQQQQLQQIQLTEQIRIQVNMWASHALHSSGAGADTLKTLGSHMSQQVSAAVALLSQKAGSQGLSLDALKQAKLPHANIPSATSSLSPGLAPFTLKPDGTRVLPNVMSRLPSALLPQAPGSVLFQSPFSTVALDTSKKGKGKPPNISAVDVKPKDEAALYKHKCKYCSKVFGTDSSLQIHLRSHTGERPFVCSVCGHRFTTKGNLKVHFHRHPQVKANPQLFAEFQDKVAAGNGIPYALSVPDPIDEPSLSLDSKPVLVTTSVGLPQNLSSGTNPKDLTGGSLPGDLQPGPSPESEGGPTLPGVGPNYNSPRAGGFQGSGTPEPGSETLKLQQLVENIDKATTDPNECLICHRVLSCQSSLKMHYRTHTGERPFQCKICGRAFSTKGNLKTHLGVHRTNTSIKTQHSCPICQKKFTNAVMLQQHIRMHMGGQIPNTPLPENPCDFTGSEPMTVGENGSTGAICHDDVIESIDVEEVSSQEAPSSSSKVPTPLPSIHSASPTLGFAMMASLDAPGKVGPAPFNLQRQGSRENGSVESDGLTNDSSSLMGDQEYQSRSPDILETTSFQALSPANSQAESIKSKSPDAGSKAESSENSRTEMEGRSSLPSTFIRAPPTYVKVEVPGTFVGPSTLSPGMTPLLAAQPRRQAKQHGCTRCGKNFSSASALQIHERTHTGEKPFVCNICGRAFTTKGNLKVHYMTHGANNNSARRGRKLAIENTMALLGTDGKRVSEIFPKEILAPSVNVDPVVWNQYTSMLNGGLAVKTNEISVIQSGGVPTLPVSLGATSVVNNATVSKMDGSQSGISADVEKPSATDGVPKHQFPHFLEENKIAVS
Technique: universal PBM
Molecule type: double-stranded DNA, one strand shown
Matrix: in vitro
Tested at: 600 nM
Setting: 8-mer, flanks averaged, mean of replicates
Direction: higher = stronger binding
Oligonucleotide | E-score
GATCATCA | 0.0063
GTCCTATA | 0.0689
GGATCACC | -0.277
CAATCCTC | -0.018

Mixed results
Substance | target | assay | system | setting | how to read | endpoint | value
PhoQ, residues 284 288 289 292 302 303 ALASRC | PhoP, residues 12 14 15 18 19 NIMAP (Escherichia coli, UniProt P23836) | Sort-seq, item: YFP reporter | E. coli | PhoQ-PhoP variant library, with: 10 µM Mg2+ | baseline: high Mg2+ state, higher = stronger signaling | fold induction | 1.69

Some of these lines once more (series 2):
Oligonucleotide | bound/input enrichment [ratio]
GGGAGUUCUACAGUCCGACGAUCCCACUCCCAGAAUCAGAAGUGACUCUGGGCAAGGACGUGGUUAUACUUCCAGAAACAAAGGUGGCUGAGUUUAACAAUGUGACUCCACUUUCAGAAGAAGAGGUAACCUCAGUCAAGGACCAACAGAGGAUUGAGCAUCA | 0.123
GGGAGUUCUACAGUCCGACGAUCGCUGCGCAAAUGAAUGGUAAACCAGAAUCCAGUUCUGUGGUUCGAACUAGGAGCAACCGUGUAGCUGUAGAUCCAGUUGUCACCGAGCAGCCCUCUACAUCAUCAGCCACAAAAGCUUUUCAACAGAGGAUUGAGCAUCA | 0.161
